{"data": "Experimental data collected from several papers", "rep main protease": "Replicase polyprotein 1ab, main protease (rep, Severe acute respiratory syndrome coronavirus 2, UniProt P0DTD1)", "note": "Lines come from different studies, so protocols differ. Numbers after ± are the reported error."}
{"Structure (SMILES)": "CCCCc1ccc(O)cc1O", "target or system": "rep main protease", "assay": "reporter gene (mKate2), inhibitor", "conditions": "20 µM", "endpoint": "inhibition", "result": "-0.934%"}
{"Structure (SMILES)": "NC(=O)c1nc(F)c[nH]c1=O", "target or system": "Venezuelan equine encephalitis virus", "assay": "viral replication", "system": "skin fibroblasts, TC83", "conditions": "72 h", "endpoint": "EC50", "result": "> 200 µM"}
{"Structure (SMILES)": "O=C(N1CCC2(CC1)C[C@@H](CN1CCCCS1(=O)=O)CCO2)C1(c2ccccc2)CCCC1", "target or system": "Venezuelan equine encephalitis virus", "assay": "viral replication", "system": "MRC5", "endpoint": "EC50", "result": "> 40 µM"}
{"Structure (SMILES)": "CS(=O)(=O)NCC1CCOC2(CCN(C(=O)Cc3ccccc3)CC2)C1 (stereo not drawn)", "target or system": "Venezuelan equine encephalitis virus", "assay": "viral replication", "endpoint": "EC50", "result": "> 39.8 µM"}
{"Structure (SMILES)": "Cn1cnc(Cn2c(=O)[nH]/c(=N\\c3cc4cn(C)nc4cc3Cl)n(Cc3cc(F)c(F)cc3F)c2=O)n1", "system": "human, severe renal impairment, plasma", "conditions": "oral, 375 mg single dose", "endpoint": "Vz/F", "result": "24 L"}
{"Structure (SMILES)": "COc1cc(-c2ccnc3[nH]cc(C#Cc4cccnc4)c23)ccc1F", "target or system": "Venezuelan equine encephalitis virus", "assay": "viral replication", "system": "U-87 MG, TC-83", "endpoint": "EC50", "result": "> 10 µM"}
{"Structure (SMILES)": "CC[C@H](C)[C@H](NC(=O)[C@H](CC(C)C)NC(=O)[C@H](Cc1c[nH]c2ccccc12)NC(=O)[C@H](CCC(N)=O)NC(=O)[C@@H](NC(=O)[C@H](Cc1ccccc1)NC(=O)[C@H](C)NC(=O)[C@H](CCCCNC(=O)COCCOCCNC(=O)COCCOCCNC(=O)CC[C@H](NC(=O)CCCCCCCCCCCCCCCCCCC(=O)O)C(=O)O)NC(=O)[C@H](CCC(N)=O)NC(=O)[C@H](C)NC(=O)[C@@H](NC(=O)[C@H](CCCCN)NC(=O)[C@H](CC(=O)O)NC(=O)[C@H](CC(C)C)NC(=O)C(C)(C)NC(=O)[C@@H](NC(=O)[C@H](CO)NC(=O)[C@H](Cc1ccc(O)cc1)NC(=O)[C@H](CC(=O)O)NC(=O)[C@H](CO)NC(=O)[C@@H](NC(=O)[C@H](Cc1ccccc1)NC(=O)[C@@H](NC(=O)CNC(=O)[C@H](CCC(=O)O)NC(=O)C(C)(C)NC(=O)[C@@H](N)Cc1ccc(O)cc1)[C@@H](C)O)[C@@H](C)O)[C@@H](C)CC)[C@@H](C)CC)C(C)C)C(=O)N[C@@H](C)C(=O)NCC(=O)NCC(=O)N1CCC[C@H]1C(=O)N[C@@H](CO)C(=O)N[C@@H](CO)C(=O)NCC(=O)N[C@@H](C)C(=O)N1CCC[C@H]1C(=O)N1CCC[C@H]1C(=O)N1CCC[C@H]1C(=O)N[C@@H](CO)C(N)=O", "system": "healthy subjects, single ascending dose", "conditions": "8.0 mg, baseline", "endpoint": "serum AST", "result": "23.3 ± 6.9 U/L"}
{"Structure (SMILES)": "Cc1ccc(C2(C(=O)N3CCC4(CC3)CC(CNS(C)(=O)=O)CCO4)CCCC2)cc1 (stereo not drawn)", "target or system": "Venezuelan equine encephalitis virus", "assay": "viral replication", "endpoint": "EC50", "result": "> 39.8 µM"}
{"Structure (SMILES)": "C(#Cc1c[nH]c2nccc(-c3ccncc3)c12)c1cccnc1", "target or system": "Venezuelan equine encephalitis virus", "assay": "viral replication", "system": "U-87 MG, TC-83", "endpoint": "EC50", "result": "0.59 ± 0.28 µM"}
{"Structure (SMILES)": "COc1cc(/C=C2/SC(=S)NC2=O)ccc1OCC(=O)O", "target or system": "rep main protease", "assay": "viral replication, Gluc reporter", "system": "SARS-CoV-2", "conditions": "20 µM", "endpoint": "inhibition", "result": "-1.26%"}
{"Structure (SMILES)": "Nc1ncnc2c([C@@H]3N[C@H](CO)[C@@H](O)[C@H]3O)c[nH]c12", "target or system": "Chikungunya virus", "assay": "viral replication", "system": "HeLa, AF 15561", "conditions": "3.1 µM", "endpoint": "inhibition", "result": "11.1%"}
{"Structure (SMILES)": "N#Cc1c(Nc2ccc(F)cc2)n[nH]c1NS(=O)(=O)c1ccc2ccccc2c1", "target or system": "Venezuelan equine encephalitis virus", "assay": "viral replication", "system": "Vero 76, TC-83", "endpoint": "EC50", "result": "> 8 µM"}
{"Structure (SMILES)": "NCC1(O)CCOC2(CCN(C(=O)C3(c4ccccc4)CCCC3)CC2)C1 (stereo not drawn)", "target or system": "Venezuelan equine encephalitis virus", "assay": "viral replication", "endpoint": "EC50", "result": "> 39.8 µM"}
{"Structure (SMILES)": "C(#Cc1c[nH]c2nccc(-c3cccnc3)c12)c1cccnc1", "target or system": "Venezuelan equine encephalitis virus", "assay": "viral replication", "system": "U-87 MG, TC-83", "endpoint": "EC50", "result": "1.24 ± 0.19 µM"}
{"Structure (SMILES)": "CC(C)OC(=O)[C@H](C)N[P@](=O)(OC[C@H]1O[C@@H](n2ccc(=O)[nH]c2=O)[C@](C)(F)[C@@H]1O)Oc1ccccc1", "target or system": "Venezuelan equine encephalitis virus", "assay": "viral replication", "system": "skin fibroblasts, TC83", "conditions": "72 h", "endpoint": "EC50", "result": "12 ± 3 µM"}
{"note": "Excerpt of the above:"}
{"Structure (SMILES)": "NCC1(O)CCOC2(CCN(C(=O)C3(c4ccccc4)CCCC3)CC2)C1 (stereo not drawn)", "target or system": "Venezuelan equine encephalitis virus", "assay": "viral replication", "endpoint": "EC50", "result": "> 39.8 µM"}
{"Structure (SMILES)": "C(#Cc1c[nH]c2nccc(-c3cccnc3)c12)c1cccnc1", "target or system": "Venezuelan equine encephalitis virus", "assay": "viral replication", "system": "U-87 MG, TC-83", "endpoint": "EC50", "result": "1.24 ± 0.19 µM"}
